Experimental data of several laboratories.
A part holds a random share of what one study measured.

Sample 1 — technique: protein-binding microarray; form: double-stranded DNA, one strand shown; matrix: in vitro; tested at: 250 nM; notes: 60-bp whole probe; added: salmon DNA 0.4 mg/ml; relative to: random background probes; direction: higher = stronger binding; quantity: log fluorescence; shared flanks, not repeated: GCCTAGCAC … GTCTTGATTCGCTTGACGCTGCTG
Target: Interferon regulatory factor 5, full length, phosphomimetic (IRF5, Homo sapiens, UniProt Q13568-2, residues 1-514, K96S/S451D/S453D/S456D/S462D)
CCAGCTCTGATGTTGGGAAAGTGCTAG: -0.486 z-score
TGGACTGCACAAGGGCCAGTGTGCTAG: -0.602 z-score
ATATGTGTATATATAATATAGTGCTAG: 0.589 z-score
TTAGGACTGGCGACTGGGTTAGTGCTA: -0.542 z-score
GACGGTCTCCTTCTGCTGACGTGCTAG: -0.091 z-score
TTAGAACCGGGGTATCGATTAGTGCTA: 2.52 z-score
TCATGTACGTCGTTTCCCACTGTGCTA: 0.514 z-score
TTAGGTTTCGGTACTGGGTTAGTGCTA: 9.55 z-score
TTAGGACTGAGGACTGGGTTAGTGCTA: -0.707 z-score
AACGGTTTCGGTTTCGGGACGTGCTAG: 10.8 z-score
TTAGGTGTCGGTTTCGGTTAGTGCTAG: 8.61 z-score
GACTGTTTCCTTTCCCTGACGTGCTAG: 1.44 z-score
TAAGGTTTCGGGTTTCGGTTAGTGCTA: 9.39 z-score
CCTTTTATGGTATTTTTTTCGTGCTAG: 0.976 z-score
GACGGTTTCCTTGCCCTGACGTGCTAG: 0.288 z-score
CATTGCTTGTGTTTATTGTGGTGCTAG: 0.389 z-score

Sample 2 — technique: protein binding microarray; form: double-stranded DNA, one strand shown; matrix: in vitro; tested at: not given; relative to: not given; direction: higher = stronger binding; quantity: E-score
Target: Histone acetyltransferase KAT6A, both winged helices, GST fusion (KAT6A, Homo sapiens, UniProt Q92794, residues 1-181)
Notes: 8-mer, flanks averaged, mean of 2 arrays, mostly near background
Residues (chain): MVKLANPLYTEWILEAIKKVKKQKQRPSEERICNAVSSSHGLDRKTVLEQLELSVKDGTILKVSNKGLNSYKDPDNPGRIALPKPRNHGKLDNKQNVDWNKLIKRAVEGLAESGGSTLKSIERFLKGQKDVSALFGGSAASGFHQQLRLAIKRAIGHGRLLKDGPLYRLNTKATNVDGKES
TATATTGA: -0.0458
CTGAATAA: -0.132
GGGTTTAC: 0.111
ACATGAGG: -0.132
CCTGCTTA: -0.102
AACGCTAC: 0.015
CCAGCCGG: -0.0106
ATGAGTGA: -0.192
CAGGTAGG: -0.0835
ATTGCGTC: 0.144
CTCTCATC: -0.23
GTCGTCTA: 0.13
TGGTAACA: -0.0816
ATAGTTAC: -0.053
GGAAGGTA: 0.0158
ATACAGGG: 0.0211
AATAAAAA: 0.044
CCTAACCA: -0.181
CCGCAATC: 0.192
ATCGCTGC: 0.141
ACATTGAA: -0.049
AGGCCATA: -0.112

Sample 3 — technique: RNA Bind-n-Seq; form: RNA; matrix: in vitro; tested at: 365 nM; relative to: no-protein control; direction: higher = stronger binding; quantity: RBNS enrichment (R)
Target: RNA binding protein fox-1 homolog 2, RRM domain, GST-SBP tag (RBFOX2, Homo sapiens, UniProt O43251-10, residues 100-194)
Notes: natural RNA segment, single round, ends assumed
Target sequence (chain): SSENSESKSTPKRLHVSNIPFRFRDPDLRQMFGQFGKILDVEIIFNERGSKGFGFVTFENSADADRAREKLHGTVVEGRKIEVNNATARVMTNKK
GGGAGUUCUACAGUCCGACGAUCGUGUGCACUUCCUCGGAGAGCCUUGGGCUGCCACGUCCACCCCGGGCUCUGCCCGUCCUGUUCUGCCCAUGGCCCAGCCCGGCCGCUCCUGCUGACCCCUCCUGGACGGGUGGAAUUCUCGGGUGCCAA: 0.339
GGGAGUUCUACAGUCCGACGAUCUUUAACAAAUGUUAUCAUGAUUAAGAAAAUUUCCAGCACUUUAAUGGCCAAUUAACUGAGAAUGUAAGAAAAUUGAUGCUGUACAAGGCAAAUAAAGCUGUUUAUUAACCUGGAAUUCUCGGGUGCCAA: 1.16
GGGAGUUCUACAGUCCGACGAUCAAGCCUAAGAAUCUUUAGAGAAGUAUACAUAAGUUUAGGAUAAAAUAAUGGGAUUUUCUUUUCUUUUCUCUGGUAAUAUUGACUUGUAUAUUUUAAGAAAUAACAGAAAGUGGAAUUCUCGGGUGCCAA: 0.751
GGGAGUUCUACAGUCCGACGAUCCCAGUGAAGACUUCUUGGGUAGUUUAGAUCCCAUGUCACCUCAGCUGAUAUUAUGGCAAGUGAUAUCACCUCUCUUCAGCCCCUAGUGCUAUUCUGUGUUGAACACAAUUUGGAAUUCUCGGGUGCCAA: 0.359
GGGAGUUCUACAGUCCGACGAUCAGUGGUGGCGGUCACGCUAACACGUGUGAAAGGCCUUUGGCAUUUUUUAAAAAGUGCAAUCAAUAAAGCAGAGUUCUGUCAAGAAUGAGUAAGUUAACAGCCAGAGACAGUGGAAUUCUCGGGUGCCAA: 0.173
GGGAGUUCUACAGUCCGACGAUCUCUCUUACAAAUCUGUGCAUCAGGAAAAUAUGCAUACUUUCAAAUAGAACAGAGGUAUUUGCAACCUGAAAAACCACUUUUAAUAAGAGCUGUAUGAUAAAUUGUUGAAAUGGAAUUCUCGGGUGCCAA: 2.46
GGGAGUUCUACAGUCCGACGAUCCUGUUUUAUGGAUGGCAGCUUGGAGCAUAGCAAGAAGUUGGAGGAUUUGAAUUCCAUUCCCAGUUCUCAUUGUGUUUUGUUUCUUAAAACUAUAAUAAUCGGUUACUGUUUGGAAUUCUCGGGUGCCAA: 0.59
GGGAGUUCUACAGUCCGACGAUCUAAAGUAGUUAUUAAAAUCAAGCACUUGAUACUAAUUUGAAGUGUGUUUAAAAGUAAAUGAUUUGGGAACUGACAAUGUGUCAGAAAAUAUAUGUUCAUUUAUCAUUUUAUGGAAUUCUCGGGUGCCAA: 0.689

Sample 4 — technique: aptamer microarray, sandwich; form: DNA with 2'F-ANA; matrix: in vitro; tested at: 200 nM; added: Cy3 exosite-II aptamer, 400 nM; direction: higher = stronger binding; quantity: mean fluorescence intensity; sequence: GGTTGGTGTGGTTGG
Target: Prothrombin, mature alpha-thrombin (F2, Homo sapiens, UniProt P00734)
Notes: whole 15-mer aptamer, many near background
2'F-ANA at 1 5 7 11: 49.6 a.u.
2'F-ANA at 3 4 5 9 10 11 14: 53.3 a.u.
2'F-ANA at 1 3 4 5 6 7 8 10 13 14 15: 81 a.u.
2'F-ANA at 1 2 3 4 7 8 9 10 12 13: 66.8 a.u.
2'F-ANA at 1 3 4 5 7 8 9 11 12 13 14 15: 48.8 a.u.
2'F-ANA at 2 8 9 14: 141 a.u.
2'F-ANA at 1 2 5 12: 127 a.u.
2'F-ANA at 1 2 10 12: 66 a.u.
2'F-ANA at 4 5 6 7 9 10 12 13 15: 48.1 a.u.
2'F-ANA at 1 3 6 8 14: 94.7 a.u.
2'F-ANA at 2 4 7 9 10 11 12 14 15: 89.3 a.u.
2'F-ANA at 2 4 6 10 12 13 15: 94.1 a.u.
2'F-ANA at 1 2 3 6 7 9 10 11 12 15: 70.4 a.u.
2'F-ANA at 4 9 10 11 12 14: 63.9 a.u.
2'F-ANA at 1 5 7 10 11 13 15: 47.4 a.u.
2'F-ANA at 2 3 4 5 6 7 11 13: 62.1 a.u.
2'F-ANA at 1 2 3 4 5 6 10 12 13 15: 54 a.u.
